Measured values from different studies.
Numbered parts are unrelated; each lists some results of a single study. “And” joins repeats or separate records; there may be more than shown.
Chain of UniProt P07949 (whole entry, unmodified, looked up): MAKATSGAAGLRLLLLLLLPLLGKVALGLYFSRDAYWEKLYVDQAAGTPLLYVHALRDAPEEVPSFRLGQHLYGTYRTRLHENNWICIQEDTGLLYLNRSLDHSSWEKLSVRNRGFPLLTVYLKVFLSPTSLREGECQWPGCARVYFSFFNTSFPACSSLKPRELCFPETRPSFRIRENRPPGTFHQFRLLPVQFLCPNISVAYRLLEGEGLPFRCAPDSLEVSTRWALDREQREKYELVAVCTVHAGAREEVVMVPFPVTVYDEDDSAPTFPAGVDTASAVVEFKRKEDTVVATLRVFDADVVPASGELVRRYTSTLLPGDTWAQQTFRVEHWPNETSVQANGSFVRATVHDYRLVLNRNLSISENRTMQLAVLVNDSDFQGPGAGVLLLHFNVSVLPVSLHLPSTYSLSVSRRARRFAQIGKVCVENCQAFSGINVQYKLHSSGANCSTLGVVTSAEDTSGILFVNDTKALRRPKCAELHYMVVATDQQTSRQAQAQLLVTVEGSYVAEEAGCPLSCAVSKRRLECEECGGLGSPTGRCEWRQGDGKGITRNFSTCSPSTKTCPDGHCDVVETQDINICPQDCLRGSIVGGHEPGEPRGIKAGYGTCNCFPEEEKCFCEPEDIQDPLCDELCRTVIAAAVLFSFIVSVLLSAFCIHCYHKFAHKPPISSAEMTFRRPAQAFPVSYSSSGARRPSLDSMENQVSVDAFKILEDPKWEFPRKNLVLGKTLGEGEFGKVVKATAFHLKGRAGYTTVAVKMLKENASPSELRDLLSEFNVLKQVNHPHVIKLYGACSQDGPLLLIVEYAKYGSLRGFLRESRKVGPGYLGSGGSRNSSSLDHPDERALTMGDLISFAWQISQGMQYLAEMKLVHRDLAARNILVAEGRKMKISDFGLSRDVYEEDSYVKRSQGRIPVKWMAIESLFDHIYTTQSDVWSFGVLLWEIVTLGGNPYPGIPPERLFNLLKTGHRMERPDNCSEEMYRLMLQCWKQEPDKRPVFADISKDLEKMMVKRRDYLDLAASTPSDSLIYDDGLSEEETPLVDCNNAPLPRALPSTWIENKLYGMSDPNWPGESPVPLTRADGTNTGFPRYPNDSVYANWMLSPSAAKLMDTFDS
Chain of UniProt Q9Y2H9 (whole entry, looked up): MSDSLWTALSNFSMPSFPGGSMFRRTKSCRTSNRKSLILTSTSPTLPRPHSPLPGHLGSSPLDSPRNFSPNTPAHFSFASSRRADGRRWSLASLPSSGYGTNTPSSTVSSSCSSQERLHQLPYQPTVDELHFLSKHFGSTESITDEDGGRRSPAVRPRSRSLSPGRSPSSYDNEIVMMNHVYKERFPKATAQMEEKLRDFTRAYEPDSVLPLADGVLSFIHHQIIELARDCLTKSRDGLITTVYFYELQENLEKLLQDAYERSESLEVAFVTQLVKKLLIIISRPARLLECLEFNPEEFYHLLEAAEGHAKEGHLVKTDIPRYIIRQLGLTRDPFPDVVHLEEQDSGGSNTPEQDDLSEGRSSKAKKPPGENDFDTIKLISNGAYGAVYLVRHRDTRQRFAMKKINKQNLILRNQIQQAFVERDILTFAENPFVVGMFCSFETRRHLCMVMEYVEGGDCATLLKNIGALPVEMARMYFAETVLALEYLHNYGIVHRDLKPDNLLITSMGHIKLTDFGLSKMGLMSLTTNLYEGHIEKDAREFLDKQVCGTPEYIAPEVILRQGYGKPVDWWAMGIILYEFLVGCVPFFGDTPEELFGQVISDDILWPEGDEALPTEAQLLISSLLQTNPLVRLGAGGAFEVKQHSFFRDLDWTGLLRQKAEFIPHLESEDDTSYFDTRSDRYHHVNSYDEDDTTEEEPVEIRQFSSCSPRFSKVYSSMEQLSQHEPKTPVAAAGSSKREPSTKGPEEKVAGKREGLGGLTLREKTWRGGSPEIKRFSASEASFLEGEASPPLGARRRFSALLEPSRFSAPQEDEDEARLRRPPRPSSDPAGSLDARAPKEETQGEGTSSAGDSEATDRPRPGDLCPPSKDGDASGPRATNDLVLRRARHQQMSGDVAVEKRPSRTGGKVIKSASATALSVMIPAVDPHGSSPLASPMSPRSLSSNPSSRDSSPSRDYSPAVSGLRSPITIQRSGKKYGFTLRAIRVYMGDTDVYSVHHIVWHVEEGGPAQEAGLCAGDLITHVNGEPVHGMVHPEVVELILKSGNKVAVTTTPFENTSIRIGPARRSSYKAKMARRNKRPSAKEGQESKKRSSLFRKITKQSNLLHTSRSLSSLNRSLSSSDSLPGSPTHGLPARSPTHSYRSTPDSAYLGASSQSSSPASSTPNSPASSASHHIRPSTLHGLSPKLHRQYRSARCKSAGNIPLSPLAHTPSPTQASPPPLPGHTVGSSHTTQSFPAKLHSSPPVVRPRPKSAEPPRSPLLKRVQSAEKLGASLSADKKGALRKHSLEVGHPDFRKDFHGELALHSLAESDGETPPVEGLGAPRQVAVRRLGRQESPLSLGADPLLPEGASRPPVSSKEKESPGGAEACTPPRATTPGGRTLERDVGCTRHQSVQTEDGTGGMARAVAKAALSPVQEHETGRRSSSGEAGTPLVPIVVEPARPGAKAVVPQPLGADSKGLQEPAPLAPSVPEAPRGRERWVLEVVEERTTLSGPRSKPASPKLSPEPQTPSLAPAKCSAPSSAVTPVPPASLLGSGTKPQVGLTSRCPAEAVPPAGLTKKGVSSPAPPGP
Chain of UniProt P32298 (whole entry, looked up): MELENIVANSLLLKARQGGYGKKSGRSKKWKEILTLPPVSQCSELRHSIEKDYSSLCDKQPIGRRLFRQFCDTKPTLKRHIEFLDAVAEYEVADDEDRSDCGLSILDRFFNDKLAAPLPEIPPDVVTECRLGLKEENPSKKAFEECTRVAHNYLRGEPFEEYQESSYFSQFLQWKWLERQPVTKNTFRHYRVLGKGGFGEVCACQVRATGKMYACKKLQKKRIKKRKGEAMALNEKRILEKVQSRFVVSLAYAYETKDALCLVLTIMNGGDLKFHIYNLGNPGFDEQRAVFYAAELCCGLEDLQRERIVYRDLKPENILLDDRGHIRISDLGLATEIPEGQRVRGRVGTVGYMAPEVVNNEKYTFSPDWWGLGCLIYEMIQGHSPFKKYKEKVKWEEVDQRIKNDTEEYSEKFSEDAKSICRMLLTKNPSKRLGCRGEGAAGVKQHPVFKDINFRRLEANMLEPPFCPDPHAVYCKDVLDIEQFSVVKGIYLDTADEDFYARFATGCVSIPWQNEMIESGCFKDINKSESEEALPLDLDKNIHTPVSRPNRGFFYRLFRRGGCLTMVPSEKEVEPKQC
Chain of UniProt P57058 (whole entry, looked up): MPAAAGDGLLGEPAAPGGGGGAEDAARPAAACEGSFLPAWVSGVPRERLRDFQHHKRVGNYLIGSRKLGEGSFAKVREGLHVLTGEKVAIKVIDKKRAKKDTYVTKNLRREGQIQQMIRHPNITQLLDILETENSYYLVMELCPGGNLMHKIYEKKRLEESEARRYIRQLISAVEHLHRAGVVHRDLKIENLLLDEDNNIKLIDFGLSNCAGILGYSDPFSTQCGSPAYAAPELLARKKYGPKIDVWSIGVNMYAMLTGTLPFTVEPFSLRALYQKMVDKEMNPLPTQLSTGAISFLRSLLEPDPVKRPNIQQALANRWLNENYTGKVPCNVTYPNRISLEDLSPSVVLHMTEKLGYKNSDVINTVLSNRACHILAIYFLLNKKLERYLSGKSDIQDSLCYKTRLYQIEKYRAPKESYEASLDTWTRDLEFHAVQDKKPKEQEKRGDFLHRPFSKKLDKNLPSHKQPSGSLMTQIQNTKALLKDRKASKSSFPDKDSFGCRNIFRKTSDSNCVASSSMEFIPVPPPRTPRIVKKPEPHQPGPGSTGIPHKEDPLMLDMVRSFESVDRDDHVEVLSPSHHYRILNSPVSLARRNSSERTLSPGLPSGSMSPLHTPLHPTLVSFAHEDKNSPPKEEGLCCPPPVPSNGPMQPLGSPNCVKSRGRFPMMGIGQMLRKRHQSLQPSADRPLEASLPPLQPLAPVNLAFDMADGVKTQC
Chain of UniProt Q6PHR2 (whole entry, looked up): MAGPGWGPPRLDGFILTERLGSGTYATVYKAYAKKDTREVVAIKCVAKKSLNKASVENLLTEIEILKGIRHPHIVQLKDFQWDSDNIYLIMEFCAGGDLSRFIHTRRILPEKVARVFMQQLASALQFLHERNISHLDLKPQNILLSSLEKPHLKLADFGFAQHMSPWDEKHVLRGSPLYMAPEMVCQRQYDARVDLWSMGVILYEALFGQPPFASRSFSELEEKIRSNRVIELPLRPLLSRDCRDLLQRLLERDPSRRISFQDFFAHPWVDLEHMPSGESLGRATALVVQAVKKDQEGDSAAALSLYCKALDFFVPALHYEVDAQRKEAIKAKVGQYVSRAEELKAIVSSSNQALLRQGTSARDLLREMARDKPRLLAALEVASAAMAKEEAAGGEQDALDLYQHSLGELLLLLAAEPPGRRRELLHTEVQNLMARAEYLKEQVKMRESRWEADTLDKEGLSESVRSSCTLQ

Set 1
Host: human
Sample: microsomes or S9
Concentration: 2 µM
Time: 0.5 h
| Compound | remaining compound |
| --- | --- |
| Cc1ccc(C2=C(c3ccccc3)c3cc(OCCN4CCN(S(C)(=O)=O)CC4)ccc3C2=O)cc1 | > 100% |
| O=C1CC(c2ccc3c(c2)OCO3)c2c(n[nH]c2-c2ccccc2)N1 (stereo not drawn) | 22.4% |
| CC(CCc1ccccc1)NC(=O)c1noc(-c2ccc[nH]c2=O)n1 (stereo not drawn) | > 99% |
| CC(C)(C)C(=O)/C=C1\NCCN\C1=C/C(=O)C(C)(C)C | 53.7% |
| CC(C)c1ccc(CCCNS(C)(=O)=O)cc1 | 63.7% |

Set 2
Target: Calcium/calmodulin-dependent protein kinase type II subunit alpha (CAMK2A, Homo sapiens, UniProt Q9UQM7)
Chain of UniProt Q9UQM7 (whole entry, looked up): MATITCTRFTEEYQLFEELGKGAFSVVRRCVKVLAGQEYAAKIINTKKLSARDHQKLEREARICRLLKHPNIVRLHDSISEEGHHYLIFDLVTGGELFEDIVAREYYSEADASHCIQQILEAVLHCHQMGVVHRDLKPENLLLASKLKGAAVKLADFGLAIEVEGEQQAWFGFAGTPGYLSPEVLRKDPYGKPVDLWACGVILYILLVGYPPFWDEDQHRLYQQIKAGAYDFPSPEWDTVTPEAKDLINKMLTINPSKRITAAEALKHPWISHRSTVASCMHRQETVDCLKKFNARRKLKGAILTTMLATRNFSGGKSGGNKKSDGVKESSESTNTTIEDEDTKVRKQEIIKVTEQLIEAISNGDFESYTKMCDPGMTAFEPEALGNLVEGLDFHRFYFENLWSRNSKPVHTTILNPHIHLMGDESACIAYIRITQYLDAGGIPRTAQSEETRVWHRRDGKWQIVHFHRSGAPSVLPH
Observed: enzyme activity
Action: inhibitor
Concentration: 10 µM
| Structure (SMILES) | inhibition [%] |
| --- | --- |
| O=C(O)[C@@H]1Cc2nc[nH]c2CN1 | 8 |
| CCCCCCCCCCCCCCCC(=O)OC1CCCn2c1nc(C)c(CCN1CCC(c3noc4cc(F)ccc34)CC1)c2=O (stereo not drawn) | -4 |
| CC(=O)OCC1=C[C@H](O)[C@@H]2C(C(=O)O)=CO[C@@H](O[C@@H]3O[C@H](CO)[C@@H](O)[C@H](O)[C@H]3O)[C@H]12 | 22 |

Set 3
Cell line: mouse MPNST tumor cells
Method: high-content immunofluorescence imaging
Refers to: nuclear SOX9
Concentration: 10 µM
Time: 12 h
Notes: mean of 2 replicates
Baseline: DMSO control
Direction: higher = more nuclear SOX9
| Compound | nuclear SOX9 intensity |
| --- | --- |
| CN(C)c1ccc(C(=O)NCCCCCCC(=O)NO)cc1 | 132 % of DMSO |
| CN1CCN(C2=Nc3ccccc3Oc3ccc(Cl)cc32)CC1 | 121 % of DMSO |
| O=c1oc2ccccc2c(O)c1Cc1c(O)c2ccccc2oc1=O | 105 % of DMSO |
| CC1(C)C(=O)N(CCN2CCC(C(=O)c3ccc(F)cc3)CC2)c2ccccc21 | 102 % of DMSO |
| Nc1ccc(S(=O)(=O)Nc2ccnn2-c2ccccc2)cc1 | 97.8 % of DMSO |
| NCCNCCNCCNCCN | 103 % of DMSO |

Set 4
Structure (SMILES): CN([C@@H]1CCc2c(CC(=O)O)c3cc(S(C)(=O)=O)ccc3n2C1)S(=O)(=O)c1ccc(F)cc1
Observed: cell-free assay
Method: competition with immobilised ligand
Concentration: 1 µM
| target | remaining binding |
| --- | --- |
| RET (Homo sapiens, UniProt P07949, V804L) | 100% |
| ACVR1 (Homo sapiens, UniProt Q04771) | 90% |
| CDK3 (Homo sapiens, UniProt Q00526) | 100% |
| MAPK10 (Homo sapiens, UniProt P53779) | 100% |
| Ribosomal protein S6 kinase alpha-1, C-terminal kinase domain (RPS6KA1, Homo sapiens, UniProt Q15418) | 100% |
| MAST1 (Homo sapiens, UniProt Q9Y2H9) | 93% |
| GRK4 (Homo sapiens, UniProt P32298) | 100% |
| TSSK1B (Homo sapiens, UniProt Q9BXA7) | 100% |
| PAK4 (Homo sapiens, UniProt O96013) | 100% |
| RET (Homo sapiens, UniProt P07949) | 100% |
| HUNK (Homo sapiens, UniProt P57058) | 100% |
| NEK1 (Homo sapiens, UniProt Q96PY6) | 100% |
| PDPK1 (Homo sapiens, UniProt O15530) | 100% |
| ULK3 (Homo sapiens, UniProt Q6PHR2) | 79% |
| GRK7 (Homo sapiens, UniProt Q8WTQ7) | 97% |

Mixed results
| Compound | cell line | test | setting | scale | measurement | result |
| --- | --- | --- | --- | --- | --- | --- |
| COc1ccc(Oc2cc(NCCC(F)(F)F)c3ncc(-c4ccc(C(=O)NC5CC5)c(C)c4)n3n2)c(F)c1F | NCI-H1048 | Vi-Cell | 6 nM, 3 d | baseline: DMSO | cell count | 0.51 and 0.564 |
